Results from different studies.
Lines come from different studies, so protocols differ. Several values in a cell are separate wells, animals, samples, runs or records. ± marks the error that the study gave. ≈ marks a conversion by molar mass, not a printed value.

[Cl-].[Cl-].[Pt+2].[Ru+2].c1ccc(-c2nc3cc4ccccc4cc3nc2-c2ccccn2)nc1.c1cnc2c(c1)ccc1cccnc12.c1cnc2c(c1)ccc1cccnc12 — survival rate (Danio rerio; embryos; 45 µM, 96 h): 76.7 ± 3.5%
CC(C)C[C@H](NC(=O)[C@H](Cc1c[nH]cn1)NC(=O)[C@H](Cc1c[nH]cn1)NC(=O)[C@H](Cc1ccc(O)cc1)NC(=O)[C@@H](N)CS)C(=O)N[C@H](C(=O)N[C@@H](CC(C)C)C(=O)N[C@H](C(=O)N[C@H](C(=O)NCC(=O)NCC(=O)N[C@@H](CO)C(=O)O)C(C)C)[C@@H](C)O)C(C)C — body weight (Epstein-Barr virus; B-NDG humanized mouse, EBV-infected; 20 mg/kg, day 0): 19.9 g and 19.5 g and 18.9 g
Cc1c(Cl)c(=O)oc2cc(OCCCC[Se]C#N)ccc12 — developmental defects (Caenorhabditis elegans; N2 Bristol, NGM with E. coli OP50; 5 µM, 3 days): 0%
CN(CC(C)(C)C)N=O — revertant colonies per plate (Escherichia coli; plate incorporation; WP2uvrA pKM101, methanol; 1500 µg/plate, without S9): 132 and 134
O=C(O)C(F)(OC(F)(F)C(F)(F)C(F)(F)F)C(F)(F)F (stereo not drawn) — concentration (Caenorhabditis elegans; LC-MS/MS; N2 L4 larvae, exposure medium supernatant; 500 µM, 48 h): 188 µM
[Cl-].[Cl-].[Pt+2].[Ru+2].c1ccc(-c2nccnc2-c2ccccn2)nc1.c1cnc2c(c1)ccc1cccnc12.c1cnc2c(c1)ccc1cccnc12 — survival rate (Danio rerio; embryos; 75 µM, 48 h): 50 ± 2.4%
CC1(F)CN(C(=O)Cn2c(=O)c(C(=O)NCc3ccc(Cl)cc3)cc3nc(N4CCNC4=O)cnc32)C1 — selectivity index (herpes simplex virus 2; cytopathic effect; G; baseline: CC50 over EC50): > 46.9
[Cl-].[Cl-].[Pt+2].[Ru+2].c1ccc(-c2nc3ccccc3nc2-c2ccccn2)nc1.c1cnc2c(c1)ccc1cccnc12.c1cnc2c(c1)ccc1cccnc12 — survival rate (Danio rerio; embryos; 30 µM, 0 h): 100%
COc1cccc(-c2n[nH]c(SCc3ccccn3)n2)c1OC — revertant colonies per plate (Salmonella typhimurium; Ames test, plate incorporation; TA1537; 0.25 mg/plate, without S9): 11
O=C(O[C@@H]1O[C@@H]2COC(=O)c3cc(O)c(O)c(O)c3-c3c(cc(O)c(O)c3O)C(=O)O[C@H]([C@H]1O)[C@@H]2O)c1cc(O)c(O)c(O)c1 — LC50 (Artemia salina; seawater; 24 h, nauplii): 589 mg/L (≈ 928 µM)
CC(C)N(C)N=O — revertant colonies per plate (Escherichia coli; mutagenicity, Ames plate incorporation; WP2 uvrA pKM101; 150 µg/plate, 3 d, without S9, methanol): 142 ± 14
Nc1nc2c(ncn2COCCO)c(=O)[nH]1 — therapeutic index (herpes simplex virus 2; RT-qPCR; HeLa, compound-resistant; baseline: CC50 over IC50): 4.85
O=NN1CCN(C2CCCC2)CC1 — revertant colonies per plate (Escherichia coli; mutagenicity, Ames plate incorporation; WP2 uvrA pKM101; 150 µg/plate, 3 d, without S9, methanol): 129 ± 13
Cc1cc(C(=O)NC(C)(C)COc2cccc3c2C(N)=NS(=O)(=O)N3)cc(C)n1 — revertant ratio (Escherichia coli; Ames test, confirmatory; WP2 uvrA; 333 µg/plate; baseline: solvent control): 1.1
O=[N+]([O-])c1ccc(N2CCC(NCCC(O)c3ccc(F)c4ccccc34)CC2)c(C(F)(F)F)c1 (stereo not drawn) — survival (Salmonella typhimurium; SOS/umu test; TA1535/pSK1002; 0.002 mg/mL, 4 h, without S9, lower range): 102%
CC(=O)N1CCC(C(=O)N2CCN3C(=O)c4cc(-c5ccccc5)ccc4NC(=O)C3C2)CC1 (stereo not drawn) — revertant fold increase (Escherichia coli; WP2 uvrA; 500 µg/plate, with rat liver S9; baseline: vehicle): 1.2
Oc1cc(O)c2c(c1)O[C@H](c1cc(O)c(O)c(O)c1)[C@@H](O)C2 — LC50 (Artemia salina; seawater; 24 h, nauplii): 594 mg/L (≈ 1940 µM)
O=C(O)C(F)(F)C(F)(F)C(F)(F)C(F)(F)C(F)(F)C(F)(F)C(F)(F)F — internal concentration (Caenorhabditis elegans; LC-MS/MS; N2 L4 larvae, worm pellet; 500 µM, 48 h): 46.9 µM
CN(N=O)c1ccc(F)cc1 — revertant colonies per plate (Escherichia coli; mutagenicity, Ames plate incorporation; WP2 uvrA pKM101; 50 µg/plate, 3 d, without S9, methanol): 128 ± 10
COc1cnc(OC)n2nc(NS(=O)(=O)c3c(OCC(F)F)cccc3C(F)(F)F)nc12 — root length (Triticum aestivum; inhibited, hydroponic germination; seedlings; 50 µg/mL, 4 days): inhibited
O=[N+]([O-])c1ccc(NC2CCNCC2)c(C(F)(F)F)c1 — induction factor (Salmonella typhimurium; genotoxicity, SOS/umu test; TA1535/pSK1002; 0.004 mg/mL, 4 h, without S9, full range): 0.5
COCCN(CCOC)N=O — revertant colonies per plate (Escherichia coli; mutagenicity, Ames plate incorporation; WP2 uvrA pKM101; 5000 µg/plate, 3 d, without S9, methanol): 144 ± 19
OC(CCN1CC=C(c2ccc(F)cc2)CC1)c1ccc(F)c2ccccc12 (stereo not drawn) — induction factor (Salmonella typhimurium; genotoxicity, SOS/umu test; TA1535/pSK1002; 0.008 mg/mL, 4 h, without S9, full range): 1.4
O=C1O[C@H]2[C@@H]3OC(=O)c4cc(O)c(O)c(O)c4-c4c(O)c(O)c5oc(=O)c6c(c(O)c(O)c7oc(=O)c4c5c76)-c4c(cc(O)c(O)c4O)C(=O)OC[C@H]3OC(O)[C@@H]2OC(=O)c2cc(O)c(O)c(O)c2-c2c1cc(O)c(O)c2O (mixture of isomers) — LC50 (Artemia salina; seawater; 24 h, nauplii): 820 mg/L
